Measurements pooled from the literature.
Each numbered part is a random draw from the data of one study; scales do not carry over between parts.

Block 1
Target: Cyclic AMP-responsive element-binding protein 1 (CREB1, Homo sapiens, UniProt P16220, residues 1-327, full length assumed)
Sequence of UniProt P16220 (whole entry, looked up): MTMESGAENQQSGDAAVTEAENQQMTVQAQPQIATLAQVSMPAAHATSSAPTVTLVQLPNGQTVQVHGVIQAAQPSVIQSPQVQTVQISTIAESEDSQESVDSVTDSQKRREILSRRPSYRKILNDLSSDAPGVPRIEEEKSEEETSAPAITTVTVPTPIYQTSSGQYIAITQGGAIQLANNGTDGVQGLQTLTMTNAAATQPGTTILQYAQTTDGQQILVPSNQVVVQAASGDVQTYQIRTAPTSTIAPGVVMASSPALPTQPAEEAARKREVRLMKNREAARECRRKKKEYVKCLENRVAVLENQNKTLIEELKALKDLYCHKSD
Method: protein-binding microarray
Form: double-stranded DNA, one strand shown
Matrix: in vitro
Concentration: not given
Setting: k-mer, scored over probes, only values ≥0.25
Reading: higher = stronger binding
| Strand | E-score |
| --- | --- |
| ACGTGAG | 0.254 |
| GTAAACA | 0.291 |
| GATGTCA | 0.316 |
| AGTATGA | 0.311 |
| CGTTACA | 0.255 |
| GTCATTA | 0.27 |

Block 2
Target: RNA binding protein fox-1 homolog 2, RRM domain, GST-SBP tag (RBFOX2, Homo sapiens, UniProt O43251-10, residues 100-194)
Method: RNA Bind-n-Seq
Form: RNA
Matrix: in vitro
Concentration: 365 nM
Setting: natural RNA segment, single round, ends assumed
Baseline: no-protein control
Reading: higher = stronger binding
All sequences stand within: GGGAGUUCUACAGUCCGACGAUC … UGGAAUUCUCGGGUGCCAA
Target sequence (chain): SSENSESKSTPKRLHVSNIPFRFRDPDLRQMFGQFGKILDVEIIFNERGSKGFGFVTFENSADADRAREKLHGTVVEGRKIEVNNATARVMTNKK
| Strand | RBNS enrichment (R) |
| --- | --- |
| AUCGCCUAGCGUUUGGGGAGGAACAGGGAGAGAGCUUCGGGGCGUCUGUCUCCGUGCUCUCCUGCCUCCACCGCCUUGGUUUUGCUUCCUGCUGGAGGCAGGGCACCUGC | 0.225 |
| UUGGGGCCUGAGGAACAACUUUUGCAGGGUGUAUGUACAGUAGAAGGAGACAGAAGAGUUCUGAUGAUAGAUCUCUGCCUCAGUCUGUUGGCUGGCCUAAUCCCCAUGAU | 0.32 |
| UUUUGACUCUUCCGUGCAUCCCAGAUAAUGGAGAAUGUAUCAGCCAGCCUUCCCCACCAAGUCUAAAAAGACCUGGCCUUUCACUUUUAGUUGGCAUUUGUUAUCCUCUU | 0.804 |
| CAGCUGGAGCUGAAGGCUCGAUCUUGUGAACCCCUAAAUCCGCUCCCUCCUAACAGCACGGAUUCUCUUGGGGCUCUUCUUCAGGGAAGAGUAGGGACGCCGUUCCAGCC | 0.273 |
| AAGGCCUUCACCUACGUGAAGACCUCCUGGUAGGAUCUGUCCAUGGGAUGGAGAACCACUCUGUCCAGAUCUGGGGUUGGGUCAUGACACCAGCUACCAAUUUUAGAAUA | 0.205 |
| CAAAUGUAUUAUUUUGGUGACAAAAAUGAAGGAGCUUUGUAAAUUUUUUUUAAAAUUAUGAAUCAUAUCAAGUAGUUGUUUACAUUUCUUGAAAAAAUAGGAACUCGGGC | 0.837 |

Block 3
Target: Interferon regulatory factor 5, full length, phosphomimetic (IRF5, Homo sapiens, UniProt Q13568-2, residues 1-514, K96S/S451D/S453D/S456D/S462D)
Method: protein-binding microarray
Form: double-stranded DNA, one strand shown
Matrix: in vitro
Concentration: 250 nM
Setting: 60-bp whole probe
With: salmon DNA 0.4 mg/ml
Baseline: random background probes
Reading: higher = stronger binding
All sequences stand within: GCCTAGCACGACG … GTCTTGATTCGCTTGACGCTGCTG
| Strand | log fluorescence |
| --- | --- |
| GTATCGTTCTCCTGACGTGCTAG | 1.74 z-score |
| ATCTCAGGTTCGAGACGTGCTAG | -0.188 z-score |
| GTTCCGGTTTCGGGATGTGCTAG | 5.43 z-score |
| TACTGGGGACTGGGGACGTGCTA | -0.468 z-score |
| GACTGCTTTGCCTGACGTGCTAG | -0.694 z-score |
| GTTTCCTTATCCTTACGTGCTAG | 0.869 z-score |

Further values, each from its own experiment
| Substance | target | assay | test system | setting | how to read | measurement | result |
| --- | --- | --- | --- | --- | --- | --- | --- |
| PhoQ, residues 284 288 289 292 302 303 DDMDFR | PhoP, residues 12 14 15 18 19 VQGLL (Escherichia coli, UniProt P23836) | Sort-seq, measured: YFP reporter | E. coli | PhoQ-PhoP variant library, with: 10 µM Mg2+ | baseline: high Mg2+ state, higher = stronger signaling | fold induction | 0.774 |

Repeated from above (block 3):
| Strand | log fluorescence |
| --- | --- |
| ATCTCAGGTTCGAGACGTGCTAG | -0.188 z-score |
| GTTCCGGTTTCGGGATGTGCTAG | 5.43 z-score |
